Measurements collected from several papers.
Lines come from different studies, so protocols differ. Several values in a cell are separate wells, animals, samples, runs or records.
Rhomboid protease AarA: Rhomboid protease AarA (Providencia stuartii, UniProt P46116)
Sequence of UniProt P46116 (whole entry, looked up): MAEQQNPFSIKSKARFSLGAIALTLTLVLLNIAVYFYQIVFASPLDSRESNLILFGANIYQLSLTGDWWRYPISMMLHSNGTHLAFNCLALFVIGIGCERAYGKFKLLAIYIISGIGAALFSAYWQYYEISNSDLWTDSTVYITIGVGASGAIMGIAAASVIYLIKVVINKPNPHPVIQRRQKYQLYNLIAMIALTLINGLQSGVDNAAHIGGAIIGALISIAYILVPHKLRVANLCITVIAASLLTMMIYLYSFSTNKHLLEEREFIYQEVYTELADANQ
PPARG ligand-binding domain: Peroxisome proliferator-activated receptor gamma, ligand-binding domain (PPARG, Homo sapiens, UniProt P37231)
Sequence of UniProt P37231 (whole entry, looked up): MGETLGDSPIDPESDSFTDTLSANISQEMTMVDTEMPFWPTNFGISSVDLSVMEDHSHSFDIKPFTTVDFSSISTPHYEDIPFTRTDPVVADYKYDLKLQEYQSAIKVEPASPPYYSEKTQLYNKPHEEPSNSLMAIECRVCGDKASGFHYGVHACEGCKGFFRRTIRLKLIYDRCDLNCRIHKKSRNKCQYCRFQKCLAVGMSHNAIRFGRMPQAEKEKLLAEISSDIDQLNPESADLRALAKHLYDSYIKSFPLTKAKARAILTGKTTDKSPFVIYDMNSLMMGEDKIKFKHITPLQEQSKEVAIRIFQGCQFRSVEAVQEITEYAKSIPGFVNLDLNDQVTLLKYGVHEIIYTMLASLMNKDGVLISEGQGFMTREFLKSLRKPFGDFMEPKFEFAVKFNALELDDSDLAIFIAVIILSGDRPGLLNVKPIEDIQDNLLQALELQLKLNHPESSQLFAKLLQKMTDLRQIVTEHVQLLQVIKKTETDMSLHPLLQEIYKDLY
Sequence of UniProt P51681 (whole entry, unmodified, looked up): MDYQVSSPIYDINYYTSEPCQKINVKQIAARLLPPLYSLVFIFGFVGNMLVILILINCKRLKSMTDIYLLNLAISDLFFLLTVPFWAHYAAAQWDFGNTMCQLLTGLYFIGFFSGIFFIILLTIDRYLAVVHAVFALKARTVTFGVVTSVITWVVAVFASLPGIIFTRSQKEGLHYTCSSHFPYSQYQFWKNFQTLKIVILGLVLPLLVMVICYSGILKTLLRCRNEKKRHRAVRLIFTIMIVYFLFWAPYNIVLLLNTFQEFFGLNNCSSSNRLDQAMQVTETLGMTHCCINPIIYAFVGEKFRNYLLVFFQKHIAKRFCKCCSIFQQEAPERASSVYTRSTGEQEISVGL
Sequence of UniProt Q92847 (whole entry, looked up): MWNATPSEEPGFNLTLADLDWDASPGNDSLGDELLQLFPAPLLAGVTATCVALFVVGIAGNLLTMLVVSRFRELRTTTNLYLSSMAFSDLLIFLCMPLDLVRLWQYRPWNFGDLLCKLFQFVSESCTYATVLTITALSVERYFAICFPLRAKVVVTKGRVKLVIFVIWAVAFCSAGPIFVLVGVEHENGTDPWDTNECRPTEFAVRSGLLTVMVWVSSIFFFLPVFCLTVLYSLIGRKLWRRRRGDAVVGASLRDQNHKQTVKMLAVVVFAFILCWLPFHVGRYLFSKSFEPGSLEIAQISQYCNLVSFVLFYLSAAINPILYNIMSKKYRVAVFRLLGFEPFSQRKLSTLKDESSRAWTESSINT
Sequence of UniProt Q14524 (whole entry, looked up): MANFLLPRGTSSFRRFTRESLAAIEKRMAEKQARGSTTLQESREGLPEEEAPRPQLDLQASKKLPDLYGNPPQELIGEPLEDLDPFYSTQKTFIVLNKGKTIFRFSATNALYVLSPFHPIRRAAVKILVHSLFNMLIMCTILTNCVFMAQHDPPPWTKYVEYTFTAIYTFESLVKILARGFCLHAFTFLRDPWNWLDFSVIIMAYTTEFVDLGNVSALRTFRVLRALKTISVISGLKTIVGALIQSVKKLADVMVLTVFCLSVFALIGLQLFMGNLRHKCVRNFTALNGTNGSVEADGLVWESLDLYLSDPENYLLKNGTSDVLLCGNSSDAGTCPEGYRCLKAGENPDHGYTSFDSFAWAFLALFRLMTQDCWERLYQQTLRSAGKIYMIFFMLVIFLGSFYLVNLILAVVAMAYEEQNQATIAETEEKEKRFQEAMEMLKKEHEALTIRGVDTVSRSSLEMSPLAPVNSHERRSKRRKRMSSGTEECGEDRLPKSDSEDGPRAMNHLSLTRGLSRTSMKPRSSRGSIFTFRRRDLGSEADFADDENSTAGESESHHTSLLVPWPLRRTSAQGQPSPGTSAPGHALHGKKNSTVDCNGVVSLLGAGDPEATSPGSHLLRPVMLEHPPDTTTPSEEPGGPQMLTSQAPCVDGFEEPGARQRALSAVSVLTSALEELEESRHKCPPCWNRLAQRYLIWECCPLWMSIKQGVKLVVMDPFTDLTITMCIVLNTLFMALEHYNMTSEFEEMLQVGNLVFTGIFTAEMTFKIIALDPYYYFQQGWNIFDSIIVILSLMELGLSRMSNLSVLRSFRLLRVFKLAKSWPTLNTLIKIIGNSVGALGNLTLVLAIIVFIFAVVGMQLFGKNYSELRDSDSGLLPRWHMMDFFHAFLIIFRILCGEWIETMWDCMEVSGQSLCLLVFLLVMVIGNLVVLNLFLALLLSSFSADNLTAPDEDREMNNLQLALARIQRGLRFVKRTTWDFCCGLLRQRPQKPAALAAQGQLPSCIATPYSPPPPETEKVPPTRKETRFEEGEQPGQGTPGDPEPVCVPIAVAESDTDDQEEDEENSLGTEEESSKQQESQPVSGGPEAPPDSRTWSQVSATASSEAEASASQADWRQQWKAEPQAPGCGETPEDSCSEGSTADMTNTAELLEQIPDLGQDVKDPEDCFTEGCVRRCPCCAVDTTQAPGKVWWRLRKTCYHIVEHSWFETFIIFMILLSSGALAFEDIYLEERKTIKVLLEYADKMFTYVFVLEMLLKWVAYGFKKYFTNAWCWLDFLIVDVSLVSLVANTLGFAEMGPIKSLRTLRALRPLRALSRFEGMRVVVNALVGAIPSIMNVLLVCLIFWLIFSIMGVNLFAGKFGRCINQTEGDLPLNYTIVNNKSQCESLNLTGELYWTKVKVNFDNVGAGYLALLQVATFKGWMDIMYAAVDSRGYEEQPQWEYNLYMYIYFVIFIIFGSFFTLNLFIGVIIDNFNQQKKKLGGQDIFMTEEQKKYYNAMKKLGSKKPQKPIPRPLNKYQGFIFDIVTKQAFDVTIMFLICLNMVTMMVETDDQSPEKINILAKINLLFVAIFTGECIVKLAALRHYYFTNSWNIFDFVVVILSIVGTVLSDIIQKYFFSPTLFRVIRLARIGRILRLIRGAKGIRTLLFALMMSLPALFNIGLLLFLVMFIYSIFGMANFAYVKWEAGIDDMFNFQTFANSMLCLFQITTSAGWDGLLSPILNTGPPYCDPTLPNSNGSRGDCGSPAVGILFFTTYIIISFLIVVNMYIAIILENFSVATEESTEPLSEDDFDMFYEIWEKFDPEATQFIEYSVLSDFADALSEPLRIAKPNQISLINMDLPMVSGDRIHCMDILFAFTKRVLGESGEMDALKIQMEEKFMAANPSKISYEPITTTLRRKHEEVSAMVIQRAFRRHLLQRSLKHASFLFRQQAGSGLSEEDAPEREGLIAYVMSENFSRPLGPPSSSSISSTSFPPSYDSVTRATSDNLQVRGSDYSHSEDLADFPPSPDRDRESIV
Sequence of UniProt P07550 (whole entry, unmodified, looked up): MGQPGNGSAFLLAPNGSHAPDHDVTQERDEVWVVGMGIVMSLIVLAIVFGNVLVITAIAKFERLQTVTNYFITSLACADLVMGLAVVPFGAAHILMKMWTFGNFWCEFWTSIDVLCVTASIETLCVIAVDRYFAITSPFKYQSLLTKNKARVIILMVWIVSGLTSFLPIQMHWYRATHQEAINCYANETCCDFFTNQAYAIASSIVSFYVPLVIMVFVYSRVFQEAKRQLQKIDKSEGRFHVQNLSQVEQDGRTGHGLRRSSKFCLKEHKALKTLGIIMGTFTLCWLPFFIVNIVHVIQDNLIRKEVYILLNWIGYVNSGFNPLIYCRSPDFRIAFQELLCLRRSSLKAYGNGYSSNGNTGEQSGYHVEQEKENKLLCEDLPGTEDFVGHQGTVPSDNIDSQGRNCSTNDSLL
Sequence of UniProt Q13547 (whole entry, looked up): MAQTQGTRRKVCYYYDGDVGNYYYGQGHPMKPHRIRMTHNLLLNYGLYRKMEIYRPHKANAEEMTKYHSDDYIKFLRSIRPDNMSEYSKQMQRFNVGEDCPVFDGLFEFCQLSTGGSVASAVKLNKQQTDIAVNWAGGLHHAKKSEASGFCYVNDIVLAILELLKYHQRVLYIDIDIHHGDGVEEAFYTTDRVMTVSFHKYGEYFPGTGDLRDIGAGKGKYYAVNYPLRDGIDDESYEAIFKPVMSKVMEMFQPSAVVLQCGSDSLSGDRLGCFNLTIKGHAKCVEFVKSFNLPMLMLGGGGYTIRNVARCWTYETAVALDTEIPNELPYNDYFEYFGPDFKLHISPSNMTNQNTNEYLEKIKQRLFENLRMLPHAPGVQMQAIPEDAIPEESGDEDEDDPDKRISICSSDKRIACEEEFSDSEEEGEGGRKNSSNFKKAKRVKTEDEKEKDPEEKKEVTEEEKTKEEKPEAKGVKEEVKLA
Sequence of UniProt P25779 (whole entry, looked up): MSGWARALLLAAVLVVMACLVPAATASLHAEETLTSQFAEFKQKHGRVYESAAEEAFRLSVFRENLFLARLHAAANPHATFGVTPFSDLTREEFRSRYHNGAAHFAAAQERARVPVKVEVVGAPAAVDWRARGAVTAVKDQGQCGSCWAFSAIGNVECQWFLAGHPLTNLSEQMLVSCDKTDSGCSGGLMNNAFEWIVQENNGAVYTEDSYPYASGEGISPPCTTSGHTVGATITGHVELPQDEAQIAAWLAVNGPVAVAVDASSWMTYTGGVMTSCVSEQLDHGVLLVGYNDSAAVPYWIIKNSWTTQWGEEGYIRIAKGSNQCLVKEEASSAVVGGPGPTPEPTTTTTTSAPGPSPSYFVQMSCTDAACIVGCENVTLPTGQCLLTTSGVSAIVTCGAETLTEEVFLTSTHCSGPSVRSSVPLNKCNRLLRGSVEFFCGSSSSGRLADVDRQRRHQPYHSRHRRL

`O=C(Nc1ccccc1OCc1ccccc1)C(C(F)(F)F)C(F)(F)F` has an IC50 of 2000 nM (Rhomboid protease AarA; enzyme activity, inhibitor, fluorescence).
For `CCC1(CC)CC(=O)N(C2c3cc(C(=O)NC4c5ccccc5CC4O)ccc3OC2(C)COC)C(=N)N1` (stereo not shown), the IC50 was 15000 nM (SCN5A (Homo sapiens, UniProt Q14524); ion current, inhibitor, patch clamp; HEK293; pH 7.3).
`CC(C)c1ccccc1[C@@H]1CCCN1C1CC2(CCN(c3ccc(C(=O)NS(=O)(=O)c4ccc(NC[C@H]5CC[C@](C)(O)CC5)c([N+](=O)[O-])c4)c(Oc4cnc5[nH]ccc5c4)c3)CC2)C1` has an IC50 of > 10000 nM (MCL1 (Homo sapiens, UniProt Q07820); binding, inhibitor, TR-FRET competition).
For `O=C(OCN1C(=O)c2ccccc2C1=O)/C(=C\c1ccco1)NC(=O)c1ccccc1`, the IC50 was 1000 nM (Cruzipain (Trypanosoma cruzi, UniProt P25779); enzyme activity, inhibitor).
The IC50 of `Fc1ccc(Nc2nc(NC3CCCCC3)c3cc(Br)ccc3n2)cc1F` is reported as 158 nM (ADRB2 (Homo sapiens, UniProt P07550, N148A); β-arrestin2 recruitment, antagonist, BRET; HEK293; mutant N148A, together with: isoprenaline 1 µM).
With `COc1ccc(C(=O)c2c(C(=O)NCCCN(C)C)oc3ccc(Cl)cc3c2=O)cc1OC` the IC50 was 41.7 nM (GHSR (Homo sapiens, UniProt Q92847); receptor internalization, bystander BRET; 60 min).
With `CCn1nc(Cl)c2c1-c1cnc(N)c(c1)O[C@H](C)c1cc(F)ccc1-c1nn(C)cc1C2` the IC50 was 795 nM (MAP4K5 (Homo sapiens, UniProt Q9Y4K4); enzyme activity, inhibitor, radiometric).
For `COC(=O)CCCCCCNC(=O)c1ccc(Nc2ncc(F)c(-c3cc(F)c4nc(C)n(C(C)C)c4c3)n2)cc1`, the IC50 was > 1000 nM (HDAC1 (Homo sapiens, UniProt Q13547); enzyme activity, inhibitor).
With `Cc1c(Cc2cccc(OC(C)(C)C(=O)O)c2)c2ccc(C(=O)N[C@@H](C)c3cccc(C(C)(C)C)c3)cc2n1C` the IC50 was 150 nM (PPARG ligand-binding domain; reporter gene, luciferase reporter; HEK293T, Gal4-PPARγ LBD).
The IC50 of `Cc1nnc(C(C)C)n1C1CC2CCC(C1)N2CCC(NC(=O)COCCOCCNC(=O)Cc1ccc(-c2nncnn2)cc1)c1ccccc1` (stereo not shown) is reported as 80 nM and 114 nM and 90.4 nM (CCR5 (Homo sapiens, UniProt P51681, Y184K); calcium mobilisation, inhibitor; HEK293T expressing CCR5; together with: PSC-RANTES).
For `Cc1c(Cc2cccc(OC(C)(C)C(=O)O)c2)c2ccc(C(=O)N[C@H](C)c3ccc(C(C)(C)C)cc3)cc2n1C`, the IC50 was 294000 nM (PPARG ligand-binding domain; reporter gene, luciferase reporter; HEK293T, Gal4-PPARγ LBD).
`O=C1CC(c2cccc(Br)c2)N1S(=O)(=O)c1cccc(Cl)c1` (stereo not shown) has an IC50 of 7000 nM (Rhomboid protease AarA; enzyme activity, inhibitor, fluorescence).
For `Cc1c(Cc2cccc(OC(C)C(=O)O)c2)c2ccc(C(=O)N[C@@H](C)c3cccc(C(C)C)c3)cc2n1C` (stereo partly shown), the IC50 was 6 nM (PPARG (Homo sapiens, UniProt P37231); ligand displacement, TR-FRET).
For `Cc1cccc(C)c1NC(=O)C(C(F)(F)F)C(F)(F)F`, the IC50 was 17000 nM (Rhomboid protease AarA; enzyme activity, inhibitor, fluorogenic peptide).
`Cc1c(Cc2cccc(OC(C)(C)C(=O)O)c2)c2ccc(C(=O)N[C@@H](C)c3cccc(C(F)(F)F)c3)cc2n1C` gave an IC50 of 500 nM (PPARG ligand-binding domain; reporter gene, luciferase reporter; HEK293T, Gal4-PPARγ LBD).
The IC50 of `O=C1CC(c2ccccc2)N1S(=O)(=O)c1ccccc1` (stereo not shown) is reported as 104000 nM (Rhomboid protease AarA; enzyme activity, inhibitor, fluorescence).

For quick reference, copied from above:
`CC(C)c1ccccc1[C@@H]1CCCN1C1CC2(CCN(c3ccc(C(=O)NS(=O)(=O)c4ccc(NC[C@H]5CC[C@](C)(O)CC5)c([N+](=O)[O-])c4)c(Oc4cnc5[nH]ccc5c4)c3)CC2)C1` has an IC50 of > 10000 nM (MCL1 (Homo sapiens, UniProt Q07820); binding, inhibitor, TR-FRET competition).
